Results collected from several papers.
Each numbered part is a random draw from the data of one study; scales do not carry over between parts.
Chain of UniProt Q92630 (whole entry, looked up): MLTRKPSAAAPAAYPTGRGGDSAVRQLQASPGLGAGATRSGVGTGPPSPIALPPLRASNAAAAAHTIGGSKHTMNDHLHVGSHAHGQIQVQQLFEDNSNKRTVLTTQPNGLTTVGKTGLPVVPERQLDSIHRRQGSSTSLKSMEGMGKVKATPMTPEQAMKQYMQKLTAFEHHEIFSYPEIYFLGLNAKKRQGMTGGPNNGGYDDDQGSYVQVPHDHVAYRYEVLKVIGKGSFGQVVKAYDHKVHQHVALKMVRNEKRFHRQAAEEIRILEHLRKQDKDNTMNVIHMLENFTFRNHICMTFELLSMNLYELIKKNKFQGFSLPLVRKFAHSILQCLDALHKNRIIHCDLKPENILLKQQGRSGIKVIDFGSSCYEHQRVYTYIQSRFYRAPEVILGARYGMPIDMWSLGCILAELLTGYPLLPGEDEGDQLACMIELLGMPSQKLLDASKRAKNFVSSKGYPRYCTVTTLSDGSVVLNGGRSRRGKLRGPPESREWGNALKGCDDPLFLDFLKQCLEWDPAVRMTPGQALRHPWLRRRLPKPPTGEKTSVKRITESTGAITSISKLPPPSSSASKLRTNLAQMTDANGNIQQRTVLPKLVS
Chain of UniProt P22455 (whole entry, looked up): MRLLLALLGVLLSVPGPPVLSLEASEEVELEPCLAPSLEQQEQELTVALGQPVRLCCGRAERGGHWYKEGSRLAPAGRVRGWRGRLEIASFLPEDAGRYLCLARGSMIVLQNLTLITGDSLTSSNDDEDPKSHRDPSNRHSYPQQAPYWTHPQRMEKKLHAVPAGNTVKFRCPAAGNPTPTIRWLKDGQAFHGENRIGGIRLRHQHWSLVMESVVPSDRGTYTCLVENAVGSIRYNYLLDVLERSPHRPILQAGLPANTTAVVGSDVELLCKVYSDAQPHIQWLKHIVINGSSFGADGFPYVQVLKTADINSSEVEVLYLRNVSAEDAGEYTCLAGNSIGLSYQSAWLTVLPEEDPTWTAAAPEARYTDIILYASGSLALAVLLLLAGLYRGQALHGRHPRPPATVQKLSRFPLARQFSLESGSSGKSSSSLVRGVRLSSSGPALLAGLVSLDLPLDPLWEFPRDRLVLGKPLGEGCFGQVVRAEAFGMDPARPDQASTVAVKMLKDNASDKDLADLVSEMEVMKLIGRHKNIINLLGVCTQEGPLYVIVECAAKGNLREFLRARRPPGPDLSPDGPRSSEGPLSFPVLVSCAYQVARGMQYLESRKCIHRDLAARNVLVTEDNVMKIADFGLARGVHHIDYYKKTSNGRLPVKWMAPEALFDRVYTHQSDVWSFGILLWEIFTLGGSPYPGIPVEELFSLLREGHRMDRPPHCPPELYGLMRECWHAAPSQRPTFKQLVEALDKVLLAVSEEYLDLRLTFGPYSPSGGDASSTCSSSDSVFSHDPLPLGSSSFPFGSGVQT
Chain of UniProt Q16620 (whole entry, looked up): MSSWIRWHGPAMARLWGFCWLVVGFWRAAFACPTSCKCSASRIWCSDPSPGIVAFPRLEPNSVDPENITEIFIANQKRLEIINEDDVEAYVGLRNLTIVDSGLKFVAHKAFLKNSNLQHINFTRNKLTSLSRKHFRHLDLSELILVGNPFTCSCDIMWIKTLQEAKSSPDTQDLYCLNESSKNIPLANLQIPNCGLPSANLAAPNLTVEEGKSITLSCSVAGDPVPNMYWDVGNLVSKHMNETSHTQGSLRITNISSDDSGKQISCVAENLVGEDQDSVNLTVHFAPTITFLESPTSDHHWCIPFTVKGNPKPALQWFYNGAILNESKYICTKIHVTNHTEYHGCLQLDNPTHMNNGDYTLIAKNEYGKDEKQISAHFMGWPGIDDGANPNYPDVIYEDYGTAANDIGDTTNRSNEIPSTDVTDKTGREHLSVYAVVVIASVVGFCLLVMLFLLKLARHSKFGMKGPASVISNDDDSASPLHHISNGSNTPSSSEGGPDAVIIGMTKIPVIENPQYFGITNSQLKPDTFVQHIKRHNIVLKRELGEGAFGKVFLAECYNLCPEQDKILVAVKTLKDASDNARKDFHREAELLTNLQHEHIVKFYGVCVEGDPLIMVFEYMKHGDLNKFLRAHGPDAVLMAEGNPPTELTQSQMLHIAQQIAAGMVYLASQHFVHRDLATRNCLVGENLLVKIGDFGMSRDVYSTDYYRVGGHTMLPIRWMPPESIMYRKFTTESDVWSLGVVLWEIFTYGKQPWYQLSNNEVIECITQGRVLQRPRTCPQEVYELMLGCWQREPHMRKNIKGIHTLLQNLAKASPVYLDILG
Chain of UniProt Q13188 (whole entry, looked up): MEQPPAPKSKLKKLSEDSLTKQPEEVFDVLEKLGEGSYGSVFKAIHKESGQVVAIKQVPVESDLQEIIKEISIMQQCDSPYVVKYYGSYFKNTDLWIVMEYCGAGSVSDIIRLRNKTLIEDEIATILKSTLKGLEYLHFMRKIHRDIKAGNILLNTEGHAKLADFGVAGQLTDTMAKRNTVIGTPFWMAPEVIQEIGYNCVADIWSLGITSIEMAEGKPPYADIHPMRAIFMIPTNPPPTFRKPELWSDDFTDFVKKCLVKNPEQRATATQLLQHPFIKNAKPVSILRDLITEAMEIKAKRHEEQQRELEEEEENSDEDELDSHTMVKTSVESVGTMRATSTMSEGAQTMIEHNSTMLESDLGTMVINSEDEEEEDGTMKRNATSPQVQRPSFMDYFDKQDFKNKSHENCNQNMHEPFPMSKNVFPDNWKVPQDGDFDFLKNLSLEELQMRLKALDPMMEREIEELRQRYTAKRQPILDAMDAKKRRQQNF
Chain of UniProt Q8IY84 (whole entry, looked up): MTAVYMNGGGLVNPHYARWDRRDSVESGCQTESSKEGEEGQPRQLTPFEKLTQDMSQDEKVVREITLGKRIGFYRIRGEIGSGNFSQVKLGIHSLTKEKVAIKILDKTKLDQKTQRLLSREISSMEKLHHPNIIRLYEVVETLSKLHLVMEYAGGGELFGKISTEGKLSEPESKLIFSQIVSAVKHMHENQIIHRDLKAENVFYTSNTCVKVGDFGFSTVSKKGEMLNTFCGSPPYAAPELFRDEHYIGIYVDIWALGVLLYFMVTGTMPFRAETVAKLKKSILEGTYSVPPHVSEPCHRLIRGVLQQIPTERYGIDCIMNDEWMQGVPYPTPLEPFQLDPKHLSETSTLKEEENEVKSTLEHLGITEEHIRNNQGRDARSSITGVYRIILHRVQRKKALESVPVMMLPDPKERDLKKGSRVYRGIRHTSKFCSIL
Chain of UniProt P78356 (whole entry, looked up): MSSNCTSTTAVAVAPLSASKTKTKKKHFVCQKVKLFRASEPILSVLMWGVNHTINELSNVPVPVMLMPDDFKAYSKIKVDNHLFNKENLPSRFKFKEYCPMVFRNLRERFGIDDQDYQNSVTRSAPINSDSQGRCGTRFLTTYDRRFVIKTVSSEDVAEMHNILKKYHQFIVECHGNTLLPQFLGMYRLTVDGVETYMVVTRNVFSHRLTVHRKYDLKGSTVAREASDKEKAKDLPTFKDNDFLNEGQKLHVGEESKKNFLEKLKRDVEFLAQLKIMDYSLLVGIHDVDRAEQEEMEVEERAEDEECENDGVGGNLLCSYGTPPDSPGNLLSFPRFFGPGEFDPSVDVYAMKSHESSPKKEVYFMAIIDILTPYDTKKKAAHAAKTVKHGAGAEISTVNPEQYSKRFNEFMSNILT
Chain of UniProt P21709 (whole entry, looked up): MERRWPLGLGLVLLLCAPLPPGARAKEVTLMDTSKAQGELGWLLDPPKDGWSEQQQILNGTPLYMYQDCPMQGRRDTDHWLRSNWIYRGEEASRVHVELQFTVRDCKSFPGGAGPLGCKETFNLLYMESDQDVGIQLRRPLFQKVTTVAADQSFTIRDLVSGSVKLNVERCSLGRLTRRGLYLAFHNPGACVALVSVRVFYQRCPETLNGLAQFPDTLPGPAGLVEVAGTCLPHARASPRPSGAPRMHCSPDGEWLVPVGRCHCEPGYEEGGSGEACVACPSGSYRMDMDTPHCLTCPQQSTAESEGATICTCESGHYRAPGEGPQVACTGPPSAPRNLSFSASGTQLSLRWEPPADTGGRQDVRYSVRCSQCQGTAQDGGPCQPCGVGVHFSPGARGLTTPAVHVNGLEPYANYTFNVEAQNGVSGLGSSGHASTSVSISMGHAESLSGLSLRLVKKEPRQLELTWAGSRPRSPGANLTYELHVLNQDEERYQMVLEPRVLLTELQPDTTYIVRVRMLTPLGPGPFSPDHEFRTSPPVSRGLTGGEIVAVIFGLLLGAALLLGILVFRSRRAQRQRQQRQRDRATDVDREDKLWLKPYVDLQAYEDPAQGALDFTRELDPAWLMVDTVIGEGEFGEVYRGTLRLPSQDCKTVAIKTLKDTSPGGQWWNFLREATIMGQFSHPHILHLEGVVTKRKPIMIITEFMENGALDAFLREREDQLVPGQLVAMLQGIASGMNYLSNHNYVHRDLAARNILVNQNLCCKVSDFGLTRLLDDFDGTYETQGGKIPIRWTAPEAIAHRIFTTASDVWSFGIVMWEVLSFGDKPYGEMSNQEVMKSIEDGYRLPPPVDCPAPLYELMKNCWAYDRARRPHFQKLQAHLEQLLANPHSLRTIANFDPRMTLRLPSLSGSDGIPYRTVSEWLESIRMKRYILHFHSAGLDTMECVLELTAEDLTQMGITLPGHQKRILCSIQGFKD

Series 1
Structure (SMILES): CNC(=O)c1ccc(Nc2ncc(C(F)(F)F)c(NCc3nccnc3N(C)S(C)(=O)=O)n2)cc1
Observed: cell-free assay
Method: competition with immobilised ligand
Concentration: 0.1 µM
| target | remaining binding [%] |
| --- | --- |
| Fibroblast growth factor receptor 4 (FGFR4, Homo sapiens, UniProt P22455) | 95 |
| Ephrin type-A receptor 1 (EPHA1, Homo sapiens, UniProt P21709) | 98 |
| Phosphatidylinositol 4,5-bisphosphate 3-kinase catalytic subunit alpha isoform (PIK3CA, Homo sapiens, UniProt P42336, I800L) | 100 |
| TGF-beta receptor type-2 (TGFBR2, Homo sapiens, UniProt P37173) | 100 |
| Dual specificity tyrosine-phosphorylation-regulated kinase 2 (DYRK2, Homo sapiens, UniProt Q92630) | 76 |
| Serine/threonine-protein kinase NIM1 (NIM1K, Homo sapiens, UniProt Q8IY84) | 100 |
| Phosphatidylinositol 5-phosphate 4-kinase type-2 beta (PIP4K2B, Homo sapiens, UniProt P78356) | 91 |
| Serine/threonine-protein kinase LATS2 (LATS2, Homo sapiens, UniProt Q9NRM7) | 65 |
| Tyrosine-protein kinase ZAP-70 (ZAP70, Homo sapiens, UniProt P43403) | 100 |
| Serine/threonine-protein kinase TAO3 (TAOK3, Homo sapiens, UniProt Q9H2K8) | 26 |
| BDNF/NT-3 growth factors receptor (NTRK2, Homo sapiens, UniProt Q16620) | 21 |
| Phosphatidylinositol 3-kinase catalytic subunit type 3 (PIK3C3, Homo sapiens, UniProt Q8NEB9) | 100 |
| Serine/threonine-protein kinase 3 (STK3, Homo sapiens, UniProt Q13188) | 68 |

Series 2
Target: Cyclin-dependent kinase 6, with cyclin D1 (CDK6, Homo sapiens, UniProt Q00534)
Chain of UniProt Q00534 (whole entry, looked up): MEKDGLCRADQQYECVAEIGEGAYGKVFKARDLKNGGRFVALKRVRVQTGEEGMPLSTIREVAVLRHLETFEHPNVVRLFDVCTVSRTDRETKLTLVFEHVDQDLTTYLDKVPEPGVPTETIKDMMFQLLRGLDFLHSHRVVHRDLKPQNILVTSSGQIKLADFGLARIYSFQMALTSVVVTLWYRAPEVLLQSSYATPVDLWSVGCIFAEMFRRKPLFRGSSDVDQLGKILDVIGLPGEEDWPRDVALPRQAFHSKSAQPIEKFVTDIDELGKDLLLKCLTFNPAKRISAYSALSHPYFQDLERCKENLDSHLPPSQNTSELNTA
Observed: enzyme activity
Mode: inhibitor
Concentration: 0.5 µM
Relative to: control
| Structure (SMILES) | remaining activity [%] |
| --- | --- |
| O=C(c1cc2cc(O)ccc2[nH]1)c1cc2cc(O)ccc2[nH]1 | 81.2 |
| O=C1Cc2c([nH]c3ccc(Br)cc23)-c2ccccc2N1 | 83.4 |
| O=c1cc(N2CCOCC2)oc2c(-c3ccccc3)cccc12 | 97.9 |
| N#Cc1cnc2cnc(NCc3cccnc3)cc2c1Nc1ccc(F)c(Cl)c1 | 92.2 |
| O=C1Nc2ccccc2/C1=C\c1c(Cl)[nH]c2ccccc12 | 105 |
| O=C1NC(=O)c2c1c1c3ccccc3[nH]c1c1[nH]c3cc(Br)ccc3c21 | 12.2 |
| CN1CCN(c2ccc3nc(-c4c(N)c5c(F)cccc5[nH]c4=O)[nH]c3c2)CC1 | 74.6 |
| O=C1NC(=O)c2c1c1c3ccccc3[nH]c1n1cncc21 | 65.7 |

Series 3
Target: Histone acetyltransferase KAT6A, winged helix 2, GST fusion (KAT6A, Homo sapiens, UniProt Q92794, residues 85-181)
Method: protein binding microarray
Molecule type: double-stranded DNA, one strand shown
Medium: in vitro
Concentration: not given
Setting: 8-mer, flanks averaged, mean of 2 arrays, mostly near background
Relative to: not given
Reading: higher = stronger binding
Target sequence (chain): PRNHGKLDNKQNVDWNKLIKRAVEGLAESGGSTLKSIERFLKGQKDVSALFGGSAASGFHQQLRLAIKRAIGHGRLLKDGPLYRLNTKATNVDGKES
| Oligonucleotide | E-score |
| --- | --- |
| GAAAGGTA | -0.0569 |
| CATTTCTC | -0.0317 |
| CAGCGGCG | 0.295 |
| ATAAACCG | -0.107 |
| AGGACTCG | -0.0549 |
| GCAACTTA | -0.0192 |
| TGATGCAA | 0.0632 |
| ACTGCTGG | 0.0957 |

Further values, each from its own experiment
| Substance | partner | method | medium | with | measurement | result |
| --- | --- | --- | --- | --- | --- | --- |
| CYC1 (Homo sapiens, UniProt P08574) | UQCR10 (Homo sapiens, UniProt Q9UDW1) | cross-linking MS | cells | BSPNO | cross-linked residues | K318 to A2 |

For quick reference, copied from above (series 2):
| Structure (SMILES) | remaining activity [%] |
| --- | --- |
| O=c1cc(N2CCOCC2)oc2c(-c3ccccc3)cccc12 | 97.9 |
| N#Cc1cnc2cnc(NCc3cccnc3)cc2c1Nc1ccc(F)c(Cl)c1 | 92.2 |
| O=C1Nc2ccccc2/C1=C\c1c(Cl)[nH]c2ccccc12 | 105 |
| O=C1NC(=O)c2c1c1c3ccccc3[nH]c1c1[nH]c3cc(Br)ccc3c21 | 12.2 |
